Results from different studies.
A part holds a random share of what one study measured.

Sample 1
Target: Histone acetyltransferase KAT6A, winged helix 2, GST fusion (KAT6A, Homo sapiens, UniProt Q92794, residues 85-181)
Technique: protein binding microarray
Form: double-stranded DNA, one strand shown
Sample: in vitro
Tested at: not given
Setting: 8-mer, flanks averaged, mean of 2 arrays, mostly near background
Relative to: not given
Reading: higher = stronger binding
Construct (chain): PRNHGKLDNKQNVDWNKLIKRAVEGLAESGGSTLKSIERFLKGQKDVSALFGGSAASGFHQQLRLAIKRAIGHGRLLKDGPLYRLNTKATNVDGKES
Oligonucleotide	E-score
CGTGCTAA	-0.0559
ACAATAAG	-0.181
GCGTAAGA	0.0407
AATAACAT	-0.044

Sample 2
Target: RNA binding protein fox-1 homolog 2, RRM domain, GST-SBP tag (RBFOX2, Homo sapiens, UniProt O43251-10, residues 100-194)
Technique: RNA Bind-n-Seq
Form: RNA
Sample: in vitro
Tested at: 365 nM
Setting: natural RNA segment, single round, ends assumed
Relative to: no-protein control
Reading: higher = stronger binding
Oligonucleotide	RBNS enrichment (R)
GGGAGUUCUACAGUCCGACGAUCUCCUCCCUGCUUAGAAAGCUACUUUAGAAGCCAUUGUAGCCACAGUGGAAAGUCAAGGUUUGUGUCUUUUCUACUGAGGUCUCAGAAAGAGAGAGAACAUCUCUCCGGACUGGAAUUCUCGGGUGCCAA	0.727
GGGAGUUCUACAGUCCGACGAUCCUUCACUCGGCAAGCAGCCCUGGUCAGAUCUGGCAGUCUUGUUGCCGAAGAUUCUGCGUGUCCUUCCACCCACCCAUGUCAACUGCCCCUUCUGAGUCUCUCCAGCGACCUGGAAUUCUCGGGUGCCAA	0.499
GGGAGUUCUACAGUCCGACGAUCUACCUGCUCCCCGCUCCUGUUGCCAGCAGCACUCACUGCACUCCUUUGUCAUAUACUCUGCAUCACUGUCAUACUCACAACUUCGUGAAUAAAGUUGUGUGCUUUAUUCGUGGAAUUCUCGGGUGCCAA	0.98
GGGAGUUCUACAGUCCGACGAUCGGUUUUCUUUUCCCAUCUCUGCACAUUGAAAAACCAAGCCAAGUCUAUUUGCCAAUGAUAGAUCACUAAUUACAAAGCUAGUAGUUCUCCUUUGGGUAAGAGUCUGUUUGUGGAAUUCUCGGGUGCCAA	0.42

Sample 3
Target: RING finger protein unkempt homolog, zinc fingers 1-6, GST-SBP tag (UNK, Homo sapiens, UniProt Q9C0B0, residues 30-357)
Sequence of UniProt Q9C0B0 (30-357, looked up): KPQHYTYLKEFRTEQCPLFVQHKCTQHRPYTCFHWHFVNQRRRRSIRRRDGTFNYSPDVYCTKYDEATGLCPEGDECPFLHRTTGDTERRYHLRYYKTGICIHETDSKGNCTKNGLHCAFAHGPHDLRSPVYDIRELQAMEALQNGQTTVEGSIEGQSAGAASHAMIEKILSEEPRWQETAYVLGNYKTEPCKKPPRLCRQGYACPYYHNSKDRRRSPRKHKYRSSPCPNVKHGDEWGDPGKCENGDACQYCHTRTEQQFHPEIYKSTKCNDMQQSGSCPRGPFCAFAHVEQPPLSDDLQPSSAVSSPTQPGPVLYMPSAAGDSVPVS
Technique: RNA Bind-n-Seq
Form: RNA
Sample: in vitro
Tested at: not given
Setting: RNA with constant flanks, ends assumed
Relative to: input RNA pool
Reading: higher = stronger binding
Oligonucleotide	bound/input enrichment [ratio]
GGGAGUUCUACAGUCCGACGAUCUCUUAACUUAUUCAUUUAACUUAUUUUUAUAGCUAGAUAAAUAUUGUUAGUCUUAGACAACCGCUCACAUUUUUUGAGAAGCAUGCCCUCCCUGUCCAUUUGUCUUAUAACAUGACCCAGCAACAGAGGAUUGAGCAUCA	11
GGGAGUUCUACAGUCCGACGAUCUCCCCUUAUGAUCAGGCGGCUUGGAUUUUGAAAGCACGGGCGCUGACAGAGAUGGUGUACACCGAUGAAAUUGAUGUGGACCAGGAAGGAAUUGCUGAAAUGAUCCUGGAUGAAAAUGCUCAACAGAGGAUUGAGCAUCA	0.194
GGGAGUUCUACAGUCCGACGAUCCUUUGUGUUCAUGGUGGACUUUCACCAGAAAUACACACACUGGAUGAUAUUAGGAGAUCCGACCGAUUCAAAGAGCCACCUGCAUUUGGACCAAUGUGUGACUUGUUAUGGUCCGAUCCUCAACAGAGGAUUGAGCAUCA	0.176

Mixed results
Molecule	target	test	system	setting	how to read	endpoint	value
PhoQ, residues 284 288 289 292 302 303 TTCLQL	PhoP, residues 12 14 15 18 19 LHSVQ (Escherichia coli, UniProt P23836)	Sort-seq, measured: YFP reporter	E. coli	PhoQ-PhoP variant library, together with: 10 µM Mg2+	relative to: high Mg2+ state, higher = stronger signaling	fold induction	2.54
